Measurements gathered from unrelated publications.
Protocols differ between the studies behind these lines.
Target: RAC-gamma serine/threonine-protein kinase (AKT3, Homo sapiens, UniProt Q9Y243)

C=CC(=O)N1Cc2nc(-c3cc(-c4cc(Cl)cnc4Cl)c(F)cc3F)n(-c3ccncn3)c2C1 — inhibition (cell-free assay, inhibitor; 1 µM): 8.3%
Cc1nc2c(F)cc(-c3nc(Nc4ccc(CNC(=O)CCCCCCC(=O)NO)cc4)ncc3F)cc2n1C(C)C — inhibition (enzyme activity, inhibitor; 1 µM): 56%
C=CC(=O)N1CCCC(n2c(=O)c3ncccc3n(Cc3ccc(Oc4ccccc4)cc3)c2=O)C1 (stereo not drawn) — remaining binding (cell-free assay, competition with immobilised ligand; 1 µM): 100%
Cc1cccc(O[C@H]2CCC[C@@H](C(C)CNCc3ccncc3)C2)c1 (relative stereo) — inhibition (enzyme activity, inhibitor; 10 µM): -8%
C=CC(=O)N1CCc2ccc(-n3c(=O)ccc4cnc5ccc(-c6cnn(C)c6)cc5c43)cc21 — remaining binding (KINOMEscan; 1 µM; relative to: DMSO control): 90%
CC(C)=CC1OC(C)(C)C2C=C3C(=O)C(Cl)=CC(O)C3C3C(O)C4OC4C(=O)C132 (stereo not drawn) — remaining binding (cell-free assay, competition with immobilised ligand; 10 µM): 92%
CNC(=O)C[C@H](Cc1ccc(C#N)cc1)NC(=O)c1cc(-c2ccc(CN[C@H](C)c3ccc(C)cc3)o2)ccc1Cl — activity vs control (enzyme activity, inhibitor; 1 µM): 95%
CNC1C[S+]2CC[S+]3CC[S+](C1)[Ru-4]321([N]=C=S)[n]2c3ccc(OC)cc3c3c4c(c5cc(F)c[n+]1c5c32)C(=O)NC4=O (stereo not drawn) — remaining binding (KinomeScan; 0.1 µM; relative to: untreated): 100%
CCN1CCN(Cc2ccc(C(=O)Nc3ccc(C)c(NCc4cnc5[nH]ccc5c4OC)c3)cc2C(F)(F)F)CC1 — remaining binding (binding, competition with immobilised ligand; 1 µM): 100%
NC(=O)[C@@H](O)C[C@H]1CCc2sc3ncnc(O[C@H]4CC[C@H](N5CCOCC5)CC4)c3c21 — inhibition (enzyme activity, inhibitor; 10 µM): 4%
C=CC(=O)Nc1cccc(-c2cnc3[nH]cc(C(=O)NC(C)(C)C)c3n2)c1 — inhibition (enzyme activity, inhibitor; 0.1 µM): -1%
Cc1ccc(-c2c(/C=C(\C#N)C(=O)NC(C)C)n(CCCO)c3ncnc(N)c23)cc1 — remaining binding (cell-free assay, competition with immobilised ligand; 1 µM): 100%
CN1CC[C@@H](COc2cnc(C#N)cc2-c2ccn3nc(NC(=O)C4CC4)cc3c2)C1 — inhibition (enzyme activity, inhibitor; 1 µM): 6%
CCn1cc(C(=O)O)c(=O)c2c(N)c(F)c(NC3CCCCC3)cc21 — inhibition (kinase activity; 0.1 µM, added: ATP at Km): 6.2%
Nc1ncc(-c2cc(-c3cnn(CC(F)(F)F)c3)ncc2F)nc1C(=O)NC1CNCC(F)C1 (stereo not drawn) — remaining activity (enzyme activity; 1 µM; relative to: DMSO control): 100%

A few entries again:
CCN1CCN(Cc2ccc(C(=O)Nc3ccc(C)c(NCc4cnc5[nH]ccc5c4OC)c3)cc2C(F)(F)F)CC1 — remaining binding (binding, competition with immobilised ligand; 1 µM): 100%
